# Published values from different studies.
# Numbered parts are unrelated; each lists some results of a single study.

# Block 1
# Target: Centromere-binding protein 1, full length, N-terminal tag (CBF1, Saccharomyces cerevisiae, UniProt P17106, residues 1-351)
# Chain of UniProt P17106 (whole entry, looked up): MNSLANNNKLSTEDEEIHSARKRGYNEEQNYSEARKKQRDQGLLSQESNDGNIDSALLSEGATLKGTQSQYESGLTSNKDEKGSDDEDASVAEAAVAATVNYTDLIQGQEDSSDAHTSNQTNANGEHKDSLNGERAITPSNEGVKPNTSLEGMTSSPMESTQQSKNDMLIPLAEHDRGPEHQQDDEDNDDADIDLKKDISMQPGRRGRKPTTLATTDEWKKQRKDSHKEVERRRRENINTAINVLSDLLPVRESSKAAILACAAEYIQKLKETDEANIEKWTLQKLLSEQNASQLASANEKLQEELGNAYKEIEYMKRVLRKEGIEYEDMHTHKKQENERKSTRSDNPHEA
# Technique: protein-binding microarray
# Molecule type: double-stranded DNA, one strand shown
# Medium: in vitro
# Concentration: 0.8 µM
# Setting: whole 60-bp probe, no competitor
# Reading: higher = stronger binding
Oligonucleotide,fluorescence intensity [a.u.]
CTAAAACTCACTTAGCACGCATTATTGCCGGAATTCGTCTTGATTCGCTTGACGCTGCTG,520
GAAACTGCTGTATCTGATGCCGTGAACGAGACATAGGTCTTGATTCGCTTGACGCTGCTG,582
GAAGAAGATCCAATCATCACCATTGCGCGATCATAGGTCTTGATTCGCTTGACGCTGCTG,491
CTAATTTGCCCTCATTACGTGATAACACCACTCTTCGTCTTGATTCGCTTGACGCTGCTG,538
CTACCACGCCAACCAAGCCTTACCCTAACCTTATTCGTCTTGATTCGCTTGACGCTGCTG,552
GAAATATTGTTTCACCTGTTCATCTTTAATAGATAGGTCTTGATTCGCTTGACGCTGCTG,608
GAACAGTCTAGTGCACGTGAGATTACACTGCAATAGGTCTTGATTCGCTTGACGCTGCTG,4330
GAAAGAGTGTACCACCACGTTTTAATACTTTGTTAGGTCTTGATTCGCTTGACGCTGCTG,572
GAACCAATGAGTCAAAACCACGTGTAATTAATATAGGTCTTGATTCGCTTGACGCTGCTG,4000
GAATACTGGTTTTAGCACGAGTTACCGACTATTTAGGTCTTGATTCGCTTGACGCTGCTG,615
CTAAAGCCATACCACCACCAATGATGATAGAGTTTCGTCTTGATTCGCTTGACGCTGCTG,508
GAATATTTTGTATATCTGATGCTATAGCCTCTATAGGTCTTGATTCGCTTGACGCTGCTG,481
TGTACGAAGCTATCCGGCGTGGGTATAGTAGTTAGGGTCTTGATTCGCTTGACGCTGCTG,549
CTAGCCCGTGCCTTCCACGCGCAACTGTTCTCTTTCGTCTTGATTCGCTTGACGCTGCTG,572
GAATTTCCGTACTGTGACACTTGACCATCATAATAGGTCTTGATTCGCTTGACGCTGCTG,679
GAAAGCCTTTGAATGATCGTGCTGACTGTAATTTAGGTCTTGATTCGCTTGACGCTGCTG,550
CCTAACTACTATAATCGCGTGTTATAGCTTCGTACAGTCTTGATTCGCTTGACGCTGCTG,558
CTATTGTTCAGCCTTCACGTTCCTTAGCTACACTTCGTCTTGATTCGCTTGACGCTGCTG,551
GAAACGCCACCCAGGTGACTTTTGCGCTAAGTGTAGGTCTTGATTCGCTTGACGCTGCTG,1010
CCTAACTACTATATCGAGGTCACATAGCTTCGTACAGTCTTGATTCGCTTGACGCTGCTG,598
CTAAGTTATAATTATGGTGTGAGAGTTGAAATATTCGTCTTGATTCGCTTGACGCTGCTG,535
GAATTAGATTTTCAGCACGTGATTTTGCATCTTTAGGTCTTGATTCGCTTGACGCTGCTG,11500
GAATCCTGCACACTGCACGTTGAGACCTGAATCTAGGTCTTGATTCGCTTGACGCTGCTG,646
GAATCTACTTTTGATCACGTCTCTATCTAATGATAGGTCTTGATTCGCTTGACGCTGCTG,1120

# Block 2
# Target: Histone acetyltransferase KAT6A, winged helix 1, GST fusion (KAT6A, Homo sapiens, UniProt Q92794, residues 1-85)
# Technique: protein binding microarray
# Molecule type: double-stranded DNA, one strand shown
# Medium: in vitro
# Concentration: not given
# Setting: 8-mer, flanks averaged, mean of 2 arrays, mostly near background
# Baseline: not given
# Reading: higher = stronger binding
# Target sequence (chain): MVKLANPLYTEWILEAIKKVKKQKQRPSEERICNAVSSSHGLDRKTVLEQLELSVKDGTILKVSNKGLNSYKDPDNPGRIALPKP
Oligonucleotide,E-score
AATAGAGA,-0.108
CATCGAGG,-0.0224
ATAAAGCC,0.0251
CCGAGTGA,-0.0548
ACTGGTCG,-0.0541
TACTCGGA,-0.0316
GCCATTCC,0.0287
CCTCGGGC,0.178
ATGCACTA,-0.102
GAGGATCA,-0.119
TAGTTCAA,-0.174
CTATCAAC,0.0219
ACCGTATG,0.126
ATCCAAAA,-0.102
CTCTGGAA,-0.145
ACGCCAAA,-0.0726
GAATATTC,0.099
CCGTGAAC,0.168
CGTATTCA,0.177
GCTTTTAC,0.125
ATATCCAT,-0.177
CAAGGCGA,-0.179
GTCCCGGA,0.195

# Block 3
# Target: Sal-like protein 4, full length isoform B (SALL4, Homo sapiens, UniProt Q9UJQ4-2, residues 1-616)
# Technique: universal PBM
# Molecule type: double-stranded DNA, one strand shown
# Medium: in vitro
# Concentration: not given
# Setting: 8-mer, flanks averaged, mean of replicates
# Reading: higher = stronger binding
Oligonucleotide,E-score
CAAGAGAG,0.0882
CGAGGTGC,-0.121
CCTGAAGG,-0.149
GACGAGGC,-0.249
CGACTGGC,-0.339
AACCGAAT,0.16
ACATGTTC,0.161
CCGCCAGC,-0.263
AGTGGAAA,0.0734
AGGTAAGC,-0.0516
ACCGTTAT,0.179
ACGTTAAA,0.253
GAACGAAC,0.0253
ACGCGTAT,0.127
ACCAGCTG,-0.283
ACTCAGAG,-0.106
TCAAACCA,0.017
AATTCCAT,0.249
CCGGTAAA,-0.0076
CGGTCTCC,-0.382
ACCGTCCG,-0.313
CCCGAACC,-0.323
TACTTACA,0.195
ATCGTTAG,0.174
AGTGGGCA,-0.0782

# Block 4
# Target: RNA binding protein fox-1 homolog 2, RRM domain, GST-SBP tag (RBFOX2, Homo sapiens, UniProt O43251-10, residues 100-194)
# Technique: RNA Bind-n-Seq
# Molecule type: RNA
# Medium: in vitro
# Concentration: 365 nM
# Setting: natural RNA segment, single round, ends assumed
# Baseline: no-protein control
# Reading: higher = stronger binding
# Residues (chain): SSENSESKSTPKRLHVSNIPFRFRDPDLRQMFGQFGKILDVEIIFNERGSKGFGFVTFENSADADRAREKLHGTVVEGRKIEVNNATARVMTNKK
Oligonucleotide,RBNS enrichment (R)
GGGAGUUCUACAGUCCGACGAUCCAGCUGUUACCACCCUCUCAGCCUGACGAGACUUAGGCUUCUUAAGAUGUCCUUCCAGCUUGUCAGACACUGCCUACCCUCUCCCUGAAUGAGCACUGGCUGAGGCUGUGUGGAAUUCUCGGGUGCCAA,0.266
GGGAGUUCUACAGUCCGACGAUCUUUAUGCUUUGAAAGCUCUCGAGUUGUUAAAGAAAAUGUAUAUCUCGAAUAGAGAAGGGGAAACUCCUUGAAUUUCUAGGUUUAAAAAGGAACUUUUAAAUUCCUUAAUGUGGAAUUCUCGGGUGCCAA,0.718
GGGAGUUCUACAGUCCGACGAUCAGCCGCUCAUGGACCAUUAGACUUGAGAAGACGACCCACGUGGUGACUGCAAAGCCCUGGGUACUUGCCUUCAUGUUCUGGUUUGGUUUUCCCUUUUUCUGCUGCUCUUGUGGAAUUCUCGGGUGCCAA,1.93
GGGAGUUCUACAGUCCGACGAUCCAUUUUCAAUAAACUUUGGAACAACCUUCUCGUAUCUCCCCUAGAGUUUCGUGCCCCUCUGAACUGUCUGUUAUUGCAAUGUAGUUUAUCAACAGAAUUUGUGUGUUUUCUGGAAUUCUCGGGUGCCAA,0.524
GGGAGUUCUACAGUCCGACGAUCACUGGUACAGUCCCAGCUCUGCUCUGGUGUAUGCGAUUUUUGAAAGACCUGUCUUCUGUGAGCUGUGCUCAUGUGCAGUGGAGCAGACCUGCUUCCGCCUGGAGGAGAGCUGGAAUUCUCGGGUGCCAA,0.321
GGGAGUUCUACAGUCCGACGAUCAUCUUUAACUGUACUUUGCCUGGCGCUGUGCGCAAGGUCUGAAACCUUAUUGCUAGUACCUAGAAACACACAAGGCUAUCCAGCCAAAUCUUAAUGUAAAGUAGCUAGAGUGGAAUUCUCGGGUGCCAA,0.346
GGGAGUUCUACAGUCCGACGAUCCCUGUGUUCUCUUCCCUCUCUCCCAAUAAAAGGGCUCCCAUUAUAAAUGCCAUGUACUUCUCUUGGGAAAAUAGACCCCCUUGCCUAGAGUAAGUUGUUAACUGAGGGCUUGGAAUUCUCGGGUGCCAA,0.803
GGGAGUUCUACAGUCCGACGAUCCUCCUUGUAACCUUCUGUAACUAUUGGAUGACGCUUUCUCCAGCUUAGCCCUAAAUAAAGCACAGUUAAAAAAAUAUUUCUUCAUUGGUCUGUGCCUCUCGGACUCUGGCUGGAAUUCUCGGGUGCCAA,0.62
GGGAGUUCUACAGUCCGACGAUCUAGAUACGUGAUGUCUGGUCAUGUAGUGAGGGCCUUGGGGGCUUGCCUUUGAAUGCUAUAGCAUAUUUAGUGUGAGGACUGGGGACCCAGUAAGAUUUAGAGAGCAAUAUUGGAAUUCUCGGGUGCCAA,1.93
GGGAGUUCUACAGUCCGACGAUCACACAUCAUCAUCGAAGUCUUCCCCAGUUAUAAAGAGGUCACAUAGUCGUGUGGGUCGAGGAUUCUGUGCCUCCAGGACCAGGGGCCCACCCUCUGCCCAGGGAGUCCUUUGGAAUUCUCGGGUGCCAA,0.359
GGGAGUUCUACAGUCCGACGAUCGAUCCUGUUGUAACUAUCUUCGGAAGGCAGCAGUAUCUUCUGGAACUUCCAUAUUCCAUUCCUUCCUCCUAAGGGACAAUGGAAGUUCUCAGAAGAGUAUCUUCAGUAAGUGGAAUUCUCGGGUGCCAA,0.326
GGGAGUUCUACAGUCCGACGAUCAACGACAGCAACGAAAACUCCUUAAUCAGAACACUGAUCCAAUGAGGAAUGGAGCUUGUUUCUGUGACCCAGGAGAACUUAGUGCAAGACUACAGGAGUUAACAGAUGGCUGGAAUUCUCGGGUGCCAA,0.376
